# Measured values gathered from unrelated publications.
# Numbered parts are unrelated; each lists some results of a single study.

# Sample 1 — method: RNAcompete; form: RNA; sample: in vitro; tested at: 20 nM; notes: 7-mer, probes averaged, single round; reference: mean of 7-mers; direction: higher = stronger binding
# Target: PABPC1L2, full length, GST fusion (mouse, UniProt A0ABA7IW68)
# Residues (chain): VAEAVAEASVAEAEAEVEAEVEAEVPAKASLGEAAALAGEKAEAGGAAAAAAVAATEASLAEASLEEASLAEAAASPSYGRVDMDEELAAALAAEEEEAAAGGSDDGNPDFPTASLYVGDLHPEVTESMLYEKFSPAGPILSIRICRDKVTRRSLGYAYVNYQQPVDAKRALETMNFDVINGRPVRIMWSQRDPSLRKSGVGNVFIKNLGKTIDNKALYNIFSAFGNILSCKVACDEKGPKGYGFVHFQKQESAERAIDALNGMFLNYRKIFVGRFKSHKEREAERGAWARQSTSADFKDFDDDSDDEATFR
Strand,7-mer Z-score
GAUUCGU,-0.405
GAGACCA,0.189
CAGUCCC,-0.219
GGCGUAC,-0.0391
CCGUACG,-0.304
UCUGCUG,-0.378
AUAGGGU,0.0732
GGGGCUA,0.495
AUCUGUU,-0.347
CUCAAUA,-0.0464
GAAUUGU,-0.235
ACCGCCA,-0.226
AUUGCAG,0.0877
UGCUUAU,-0.423
AGGGGGC,0.586
GCUUGGC,-0.05
GCCGUGG,-0.124
GUCUAGC,-0.195
AUGUUUU,-0.36
CGUAUGG,-0.242
GCUUCAA,-0.186
ACAAAAC,2.76
CUCAACC,-0.271
CAGGACU,0.109
UGCUAUU,-0.249

# Sample 2 — method: protein-binding microarray; form: double-stranded DNA, one strand shown; sample: in vitro; tested at: 2200 nM top; notes: 60-bp whole probe; with: salmon DNA 0.4 mg/ml; reference: random background probes; direction: higher = stronger binding; constant ends, left off below: GCCTAGCAC … GTCTTGATTCGCTTGACGCTGCTG
# Target: Interferon regulatory factor 7, full length, phosphomimetic (IRF7, Homo sapiens, UniProt Q92985, residues 1-503, S471D/S472D/S475D/S476D/S477D/S483D/S484D/S487D)
# Construct (chain): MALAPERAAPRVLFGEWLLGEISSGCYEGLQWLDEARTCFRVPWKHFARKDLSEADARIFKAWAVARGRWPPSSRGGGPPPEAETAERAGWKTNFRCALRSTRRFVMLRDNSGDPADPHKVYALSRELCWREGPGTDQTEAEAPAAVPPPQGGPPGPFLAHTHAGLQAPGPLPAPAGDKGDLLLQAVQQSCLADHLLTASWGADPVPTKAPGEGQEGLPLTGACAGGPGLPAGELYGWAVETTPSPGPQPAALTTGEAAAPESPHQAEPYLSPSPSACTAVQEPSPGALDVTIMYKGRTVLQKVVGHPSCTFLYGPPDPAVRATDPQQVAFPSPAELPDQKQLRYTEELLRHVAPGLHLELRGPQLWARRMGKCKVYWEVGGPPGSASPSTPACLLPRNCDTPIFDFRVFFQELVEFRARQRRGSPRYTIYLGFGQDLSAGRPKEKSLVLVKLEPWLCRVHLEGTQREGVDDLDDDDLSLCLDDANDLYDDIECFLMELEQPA
Strand,fitted relative affinity
GACGGACTGGACATTCGGGACGTGCTA,-0.0609 z-score
TTAGAACTGAGACTGGATTTGTGCTAG,-0.411 z-score
GTCGAACTGGGGTATCGAGACGTGCTA,0.234 z-score
TTAGTTATCAGTTTCGATTAGTGCTAG,6.31 z-score
TTAGATTTCAGTATCGATAAGTGCTAG,0.409 z-score
GACGGTTCCGCTTTCGGGACGTGCTAG,5.61 z-score
GTCGGTATCGACTATCGGGACGTGCTA,0.694 z-score
TTAGGTCTCGGTTTCGGTTCGTGCTAG,12 z-score
GCGCTTCTCGAGTGCCGGCTGGTGCTA,1.64 z-score
TTTTTTTTTTTTTTTTGTATGTGCTAG,2.02 z-score
GACGGTATCTGGTATCGGGACGTGCTA,0.161 z-score
TTAGCTATCAGTCTCGATTAGTGCTAG,0.561 z-score
GACGGTAGCCTTATCCTGACGTGCTAG,0.204 z-score
TTAGGTTTCGACGATCGGTTAGTGCTA,1.35 z-score
TTAGGTTTCCTTTTCCTTTCGTGCTAG,8.55 z-score
GACGATATAAGTTTCGAGACGTGCTAG,2.98 z-score
TCAACTCTTTATTTAAGACTGTGCTAG,0.146 z-score
TTAGGTCTCCTTATCTTTTAGTGCTAG,0.641 z-score
TTAGTTTTCAGTATCGATTAGTGCTAG,2.73 z-score
TTATGTTCCGGTTTCGGTTAGTGCTAG,8.91 z-score
AAGCCATTGGTCTTCACTTGGTGCTAG,0.141 z-score
TCTCTTTCCTTCTTGATGCAGTGCTAG,3.49 z-score
TTAGGACTGGACTCTGGGTTAGTGCTA,-0.645 z-score
TTATGTTTCCTTTTCCTTTAGTGCTAG,7.31 z-score
TTAGGTATCAGTATCGGTTAGTGCTAG,0.673 z-score

# Sample 3 — method: protein binding microarray; form: double-stranded DNA, one strand shown; sample: in vitro; tested at: not given; reference: not given; direction: higher = stronger binding
# Target: Histone acetyltransferase KAT6A, winged helix 2, GST fusion (KAT6A, Homo sapiens, UniProt Q92794, residues 85-181)
# Notes: 8-mer, flanks averaged, mean of 2 arrays, mostly near background
# Construct (chain): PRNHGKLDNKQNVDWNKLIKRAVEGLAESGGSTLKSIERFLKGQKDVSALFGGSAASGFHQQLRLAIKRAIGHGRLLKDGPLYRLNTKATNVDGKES
Strand,E-score
CAACACAA,0.0907
AAGGCTCC,-0.183
CCTAGAGC,0.118
GGCGCACC,0.212
GGGGGAGA,0.129
GAACACGC,0.0699
AGTCTGCA,-0.125
AAAATGGC,0.00258
ATGACTGA,-0.187
CTATAACC,-0.302
GATGTCAA,-0.133
AAATGAGG,-0.148
AGATTCAG,0.12
CGCCGCCC,0.123
GACGTTTA,-0.24
ATGGAAAC,-0.157
ATGTTCCG,-0.00083
CATAATCC,-0.161
AGAACTTA,-0.0228
ATTTACAA,-0.01

# Sample 4 — method: RNA Bind-n-Seq; form: RNA; sample: in vitro; tested at: 365 nM; reference: no-protein control; direction: higher = stronger binding
# Target: RNA binding protein fox-1 homolog 2, RRM domain, GST-SBP tag (RBFOX2, Homo sapiens, UniProt O43251-10, residues 100-194)
# Notes: natural RNA segment, single round, ends assumed
# Construct (chain): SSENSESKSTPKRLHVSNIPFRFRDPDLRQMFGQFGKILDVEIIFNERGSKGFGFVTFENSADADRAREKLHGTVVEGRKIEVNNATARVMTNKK
Strand,RBNS enrichment (R)
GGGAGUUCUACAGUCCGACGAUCCAGAUACAUUCUGGCUUAUUUGAGAUACAUGAUUCUCUUAGAAUCCUGUCCCUUGGUUCAGGAAAGUAGCUUGGAAAAGGAGUAGGGGUAUAGCUUGGGUCCCUUUUCCUUGGAAUUCUCGGGUGCCAA,0.639
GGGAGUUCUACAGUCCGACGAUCCGUGGUGUCCACCCGCCCCUCCUGGUGCCCACGGUGGAUACUGCAUGAUGUGAACCUUGGUUUUGAACUCUGUUCCUGCCCCUCCCCGACCGCCCCAGCCUGUGCCCGCCUGGAAUUCUCGGGUGCCAA,1.8
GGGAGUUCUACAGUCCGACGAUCGUGUCCUUCAAACAUAUCCUCCUGCAACUUCUCAAACUGUACUAAAUUGAUAUUUCUUGAAGUCUAACUCUGUGCUAACAGAUCUCCAUUUUAAAUAGAAUACGGUUUUAUGGAAUUCUCGGGUGCCAA,0.606
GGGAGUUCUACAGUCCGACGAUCAUGCUCACUUGUUAGUAUUUCUGAGUAACAAGAUGGUGACUUCUCCUUGGGGAUCUGGGAGCUGAGCACUUGUCUAUACUUGUUCCUAAUUUUCCAAGUAUUUCUCUUGAUGGAAUUCUCGGGUGCCAA,0.44
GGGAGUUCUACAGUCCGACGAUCGGCAUUCUGGUGCACUAACUUGUGCACACACCAGCUCCAGCCUUUGCAGAAUGACAGCUCUUUGUUUCUGAAGUAACCAGCACACCACACUCAUGUUUAAAAGGACAAAGUGGAAUUCUCGGGUGCCAA,0.372
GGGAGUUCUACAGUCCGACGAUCCGCUUUGCCAGCCUGGGAGCCGCGCGCAUGCGCGCUCUCUCUGCCCUUCUCACCUCUGCUUCACUCGCCUUCUGUGCUUGUUCCGGAGACUUUCCAGGCCAGGGAGAACUUGGAAUUCUCGGGUGCCAA,0.556
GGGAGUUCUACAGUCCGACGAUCUAUGUAACAAUCAUGAAUAUUAGAUUUUUUAAAUUGUAGAAUAUCCUAAUAUUUAUAGCCAGCAGCUGUUACUUUGUUUGUAAAAUUUGCAAAAAAACAAAACCUGAAGUUGGAAUUCUCGGGUGCCAA,1.82
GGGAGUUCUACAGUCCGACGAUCUAAAAGAACAAAGAGUGAAAUAUUGUAAAUGCUAUUAUACUGUUAUCCAUAUUACGUUGUUUCUUAUAGAUUUUUUAAAAAAAAUGUGAAAUUUUUCCACACUAUGUGUGUGGAAUUCUCGGGUGCCAA,1.04
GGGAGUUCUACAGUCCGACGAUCGUCUGGCCAGAUGGGUUGCUGGCUGCACUGAGGGUGAUUCUUCUCAGAAGAUGGGCUGCCUGUGGUCAGGACAGGGCAUACCAGUCUGGACUCCACCUUCCCAGACACCUUGGAAUUCUCGGGUGCCAA,0.4
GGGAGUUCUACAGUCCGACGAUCUAUGGGCCGUUUAUAUACCUUUGGUGAAAUGUCUAUUUAAAUCUUUUGCUCACUUUUCAGUUGGGUUUUUUUUCUUAUUAAAUAGUAAGAGUUCUUAAUAUAUUCUGGAUUGGAAUUCUCGGGUGCCAA,0.637
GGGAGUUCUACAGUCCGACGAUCACUCUUAACUUCUUAGUGCCUCAGUUUUCCUUUGGGGUAUACUUCACAAGGUAUCAGAAGUACUUUCAGUCUACAGGUCUCUAUGUCCACAUAACUAAGGAAUGCCUAACUGGAAUUCUCGGGUGCCAA,0.278
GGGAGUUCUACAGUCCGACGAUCUCAGAUUAGUAUUCGGACAUGAAUCCAUUCUAUAAAACACAUCGUGUUCAUGAUAGUGUAUAUUUUACUACUUUUUGAAUGUUAAUUUUAAAAUAGAAGAUGUCCCACUUUGGAAUUCUCGGGUGCCAA,0.343

# For quick reference, copied from above (sample 2):
Strand,fitted relative affinity
GTCGGTATCGACTATCGGGACGTGCTA,0.694 z-score
TTAGGTCTCGGTTTCGGTTCGTGCTAG,12 z-score
GCGCTTCTCGAGTGCCGGCTGGTGCTA,1.64 z-score
TTTTTTTTTTTTTTTTGTATGTGCTAG,2.02 z-score
GACGGTATCTGGTATCGGGACGTGCTA,0.161 z-score
TTAGCTATCAGTCTCGATTAGTGCTAG,0.561 z-score
GACGGTAGCCTTATCCTGACGTGCTAG,0.204 z-score
TTAGGTTTCGACGATCGGTTAGTGCTA,1.35 z-score
TTAGGTTTCCTTTTCCTTTCGTGCTAG,8.55 z-score
GACGATATAAGTTTCGAGACGTGCTAG,2.98 z-score
TCAACTCTTTATTTAAGACTGTGCTAG,0.146 z-score
TTAGGTCTCCTTATCTTTTAGTGCTAG,0.641 z-score
